Results pooled from the literature.
A part holds a random share of what one study measured.
Chain of UniProt P9WI81 (whole entry, looked up): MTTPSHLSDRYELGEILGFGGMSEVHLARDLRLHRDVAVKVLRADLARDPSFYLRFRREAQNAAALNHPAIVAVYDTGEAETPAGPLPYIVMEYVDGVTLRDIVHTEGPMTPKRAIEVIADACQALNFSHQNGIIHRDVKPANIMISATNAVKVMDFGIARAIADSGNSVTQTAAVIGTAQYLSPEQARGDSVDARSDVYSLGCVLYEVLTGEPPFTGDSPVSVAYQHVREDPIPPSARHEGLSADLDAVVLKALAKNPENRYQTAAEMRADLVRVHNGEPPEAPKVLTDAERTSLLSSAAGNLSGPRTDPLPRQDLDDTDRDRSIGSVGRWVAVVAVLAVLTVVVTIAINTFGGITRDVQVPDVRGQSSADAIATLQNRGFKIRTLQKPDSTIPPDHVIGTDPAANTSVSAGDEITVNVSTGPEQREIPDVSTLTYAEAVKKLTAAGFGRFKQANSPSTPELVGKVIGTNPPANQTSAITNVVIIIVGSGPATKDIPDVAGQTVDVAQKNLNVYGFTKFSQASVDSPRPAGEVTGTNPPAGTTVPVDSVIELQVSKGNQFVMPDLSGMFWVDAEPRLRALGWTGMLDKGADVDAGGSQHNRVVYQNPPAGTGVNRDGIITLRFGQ
Chain of UniProt P61075 (whole entry, looked up): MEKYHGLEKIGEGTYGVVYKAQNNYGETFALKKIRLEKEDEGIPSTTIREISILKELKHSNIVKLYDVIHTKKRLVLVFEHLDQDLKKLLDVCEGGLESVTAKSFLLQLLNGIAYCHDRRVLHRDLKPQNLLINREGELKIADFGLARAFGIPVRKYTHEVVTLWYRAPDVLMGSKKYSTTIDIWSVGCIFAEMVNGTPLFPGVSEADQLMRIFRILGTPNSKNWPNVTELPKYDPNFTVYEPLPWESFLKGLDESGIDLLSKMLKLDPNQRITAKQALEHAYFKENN

Study 1 — target: vesicular stomatitis virus glycoprotein; observed: viral entry; technique: VSVΔG-G pseudovirus; concentration: 10 µM
| Structure (SMILES) | inhibition |
| --- | --- |
| N#C/C(=C\Nc1cc(C(F)(F)F)cc(C(F)(F)F)c1)S(=O)(=O)Cc1ccc(Cl)cc1 | 35% |
| Cc1nc2cc(-c3cccc4ccnn34)ccc2s1 | 0.7% |
| N=C(N)Nc1ccc(C(=O)Oc2ccc3cc(C(=N)N)ccc3c2)cc1 | -47% |
| O=C(NCC(F)(F)F)c1ccc(CN(Cc2cc(Cl)cc3c2OCOC3)C2CC2)cc1 | -6% |
| CC(c1ccc(-c2ccc3sc(N)nc3c2)cc1)N1CCOCC1 (stereo not drawn) | 16% |
| Cc1nn(C)c(C)c1-c1ccnc(NC2CCN(Cc3cccnc3)CC2)n1 | 1.7% |
| C=C(C#N)CN1CCN(CC(=C)C#N)CC1 | 17% |
| Oc1ccc(CN2CCN(Cc3ccc(Br)s3)CC2)c2cccnc12 | 10% |

Study 2 — observed: enzyme activity; mode: inhibitor; concentration: 10 µM
Target: Calcium/calmodulin-dependent protein kinase type II subunit alpha (CAMK2A, Homo sapiens, UniProt Q9UQM7)
Chain of UniProt Q9UQM7 (whole entry, looked up): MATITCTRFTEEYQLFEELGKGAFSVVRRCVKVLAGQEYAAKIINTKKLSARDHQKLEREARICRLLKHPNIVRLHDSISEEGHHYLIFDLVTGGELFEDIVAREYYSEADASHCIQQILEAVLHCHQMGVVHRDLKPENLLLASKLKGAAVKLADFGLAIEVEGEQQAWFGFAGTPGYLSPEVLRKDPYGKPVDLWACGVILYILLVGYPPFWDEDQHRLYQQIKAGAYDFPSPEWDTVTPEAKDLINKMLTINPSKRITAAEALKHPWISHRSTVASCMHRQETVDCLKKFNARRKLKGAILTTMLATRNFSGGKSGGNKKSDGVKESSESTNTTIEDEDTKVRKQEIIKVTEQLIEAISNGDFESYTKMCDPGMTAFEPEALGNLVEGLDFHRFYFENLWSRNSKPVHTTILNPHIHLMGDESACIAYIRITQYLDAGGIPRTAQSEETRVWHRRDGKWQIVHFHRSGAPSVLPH
| Structure (SMILES) | inhibition [%] |
| --- | --- |
| CC(C)C(N)CC(=O)O (stereo not drawn) | -18 |
| CC(C)(C)[C@]1(O)C[C@@H]2OC(=O)C[C@@]23C(=O)O[C@@H]2OC(=O)[C@H](O)[C@]213 | 17 |
| COc1ccc2c(c1OC)CC1c3c(cc4c(c3-2)OCO4)CCN1C (stereo not drawn) | -17 |
| C[C@H]1CCCC(=O)CCCCCc2cc(O)cc(O)c2C(=O)O1 | 14 |
| COC(=O)C1=CCCNC1 | 1 |
| CC[C@@H]1CN2CC[C@@]3(C(=O)Nc4ccccc43)[C@@H]2C[C@@H]1/C(=C\OC)C(=O)OC | -12 |

Study 3 — cell line: HaCaT; concentration: 100 µM; time: 36 h
| Structure (SMILES) | viability |
| --- | --- |
| CNCC(O)c1ccc(O)cc1 (stereo not drawn) | 90.3% |
| CC[C@@]1(O)C(=O)OCc2c1cc1n(c2=O)Cc2cc3cc(O)ccc3nc2-1 | 7.54% |
| C[C@@H]1[C@H](O)[C@@H](C)/C=C/C=C/CC/C=C/C=C/C=C/C=C/[C@H](O[C@H]2O[C@@H](C)[C@H](O)[C@@H](N)[C@H]2O)C[C@@H]2O[C@](O)(C[C@@H](O)[C@H](O)CC[C@@H](O)C[C@@H](O)C[C@@H](O)CC(=O)O[C@H]1C)C[C@H](O)[C@H]2C(=O)O | 79.1% |

Other studies, line by line
HTR2C: 5-hydroxytryptamine receptor 2C (HTR2C, Homo sapiens, UniProt P28335)
Chain of UniProt P28335 (whole entry, looked up): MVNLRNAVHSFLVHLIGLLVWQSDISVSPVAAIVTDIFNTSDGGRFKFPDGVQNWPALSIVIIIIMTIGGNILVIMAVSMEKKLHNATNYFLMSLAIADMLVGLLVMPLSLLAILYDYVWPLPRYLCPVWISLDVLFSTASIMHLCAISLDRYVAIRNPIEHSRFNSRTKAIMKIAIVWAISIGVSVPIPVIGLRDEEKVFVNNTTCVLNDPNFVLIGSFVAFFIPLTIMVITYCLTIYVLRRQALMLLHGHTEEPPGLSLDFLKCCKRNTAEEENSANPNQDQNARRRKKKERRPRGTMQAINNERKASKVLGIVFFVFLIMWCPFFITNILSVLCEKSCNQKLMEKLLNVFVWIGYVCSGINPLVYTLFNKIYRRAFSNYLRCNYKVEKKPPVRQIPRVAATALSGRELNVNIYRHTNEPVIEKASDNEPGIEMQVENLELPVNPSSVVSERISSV
| SMILES | target | assay | conditions | quantity | value |
| --- | --- | --- | --- | --- | --- |
| CS(=O)(=O)NCC[C@H](NC(=O)c1cncc2c1cnn2-c1ccc(F)cc1)c1ccnc(S(C)(=O)=O)c1 | HTR2C | binding, radioligand binding | 10 µM | inhibition | -0.86% |
| CS(=O)(=O)c1cc(C2(NC(=O)c3cncc4c3cnn4-c3ccc(F)cc3)CC2)ccn1 | Serine/threonine-protein kinase PknB (pknB, Mycobacterium tuberculosis, UniProt P9WI81) | cell-free assay, competition with immobilised ligand | 1 µM | remaining binding | 99% |
| Cc1c(N2CCCC2)nc2ccc(Br)cc2c1C(=O)NC[C@H](CCC(=O)O)c1ccccc1Cl | HTR2C | cell-free assay | 10 µM | inhibition | 2.98% |
| O=C(Nc1cccnn1)N1CC(C/C=C/c2cncc(Oc3ccc(C(F)(F)F)cn3)n2)C1 | Cyclin-dependent kinase 2 homolog (CRK2, Plasmodium falciparum, UniProt P61075) | cell-free assay, competition with immobilised ligand | 1 µM | remaining binding | 93% |

Some of these lines once more (study 2):
| Structure (SMILES) | inhibition [%] |
| --- | --- |
| C[C@H]1CCCC(=O)CCCCCc2cc(O)cc(O)c2C(=O)O1 | 14 |
| COC(=O)C1=CCCNC1 | 1 |
